Measured values from different studies.
Parts stem from different laboratories: compare values within a part only. Substitutions count along the parent as printed.

Study 1
Target: Ras GTPase-activating protein-binding protein 1, RRM domain (G3BP1, Homo sapiens, UniProt Q13283)
Chain of UniProt Q13283 (whole entry, looked up): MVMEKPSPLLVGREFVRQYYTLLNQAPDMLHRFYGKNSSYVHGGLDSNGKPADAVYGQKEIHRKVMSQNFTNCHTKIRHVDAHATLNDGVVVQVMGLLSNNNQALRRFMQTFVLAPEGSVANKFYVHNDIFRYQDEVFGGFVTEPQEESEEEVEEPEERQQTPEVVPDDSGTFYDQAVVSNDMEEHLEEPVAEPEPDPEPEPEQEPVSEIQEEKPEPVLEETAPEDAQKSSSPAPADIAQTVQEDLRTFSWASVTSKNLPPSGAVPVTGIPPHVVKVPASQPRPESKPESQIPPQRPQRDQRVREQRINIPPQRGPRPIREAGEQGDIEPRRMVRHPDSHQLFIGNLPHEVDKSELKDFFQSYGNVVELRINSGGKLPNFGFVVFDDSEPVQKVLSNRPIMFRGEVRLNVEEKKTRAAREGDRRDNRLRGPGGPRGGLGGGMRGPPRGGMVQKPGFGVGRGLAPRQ
Technique: RNA Bind-n-Seq
Form: RNA
Medium: in vitro
Concentration: 1 µM
Setting: whole 134-nt RNA, ends assumed
Together with: 150 mM KCl
Baseline: input library
Reading: higher = stronger binding
`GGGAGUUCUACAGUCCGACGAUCGCAGGAAGUAAAAACAAAUGGAAAUGCUUCGGAUAGUGGGAGGGGUGGGGGUUGCUAAGGAAAGGGUGGGAUGGGAGUGGGUAAAGAGUUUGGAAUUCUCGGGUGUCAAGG` has a log2 enrichment of 1.3.
`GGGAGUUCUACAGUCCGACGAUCGCAGGAAGUAAAAACAAAUGGAAAUGCUUCGGAUAGUGGCAGGGGUGGAAAUUGCUAAGGAAAGGGUGGGAUGGGAGUGGGUAAAGAGUUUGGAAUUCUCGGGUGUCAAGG` gave a log2 enrichment of 1.09.
For `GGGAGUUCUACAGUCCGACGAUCAGUCCUGUGCUACACAUCGUAUGUACCGAAUCGGGGUUUUUUUGGGGUGGGGUGGGGAAAGUAUUAUGUUACGCCGUUCGGAUCUGCACUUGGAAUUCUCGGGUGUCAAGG`, the log2 enrichment was 0.528.
For `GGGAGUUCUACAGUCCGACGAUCUAGCUAAACUAAUGUCAACUUAUUUCCUUUUUUCCUUUAGCCACCAUCAAAGAACAGACGAGAGAGAACAGAACUGAAGCCUGAUUUCUUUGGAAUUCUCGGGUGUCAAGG`, the log2 enrichment was -0.409.
The log2 enrichment of `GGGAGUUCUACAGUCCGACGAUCACCAUGCAGGUGGGCAUUUUUGGGAAGUGGGGCAAGGGGGGGAUAGGGAGGGGGGUAACACUUUGGGAACAGGUGGUCCCAGGUCGUUUCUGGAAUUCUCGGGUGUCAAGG` is reported as -0.486.
`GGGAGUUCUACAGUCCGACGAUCCCUGUGCUACACAUCGUAUGUACCGAAUCGGGGAAAAAGGGGUUUUUUUGGGGUUUGGGGAAAGUAUUAUGUUACGCCGUUCGGAUCUGCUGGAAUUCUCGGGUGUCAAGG` has a log2 enrichment of 0.759.
`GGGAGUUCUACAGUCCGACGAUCGCAGGAAGUAAAAACAAAUGGAAAUGCUUCGGAUAGUGGCAGGGGUGGGGGUUGCUAAGGAAAAAGUGGGAUGGGAGUGGGUAAAGAGUUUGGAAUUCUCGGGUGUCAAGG` gave a log2 enrichment of 1.36.
`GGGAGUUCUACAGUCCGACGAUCAGUCCUGUGCUACACAUCGUAUGUACCGAAUCGGGUUUUUUUGGGUUUGGGAAAGGGAAAGUAUUAUGUUACGCCGUUCGGAUCUGCACUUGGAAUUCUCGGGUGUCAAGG` has a log2 enrichment of 0.313.

Study 2
Target: CCNE1, cyclin fold, Cln2 fusion (human)
Technique: yeast growth competition, sequencing
Medium: yeast
Setting: weak parent motif
Baseline: not given
Reading: higher = stronger binding
Starting sequence: DBF4 docking peptide (human); DDIVSKLVFDFVE
`DDIVSKLVFDFAE [V12A]`: “normalised enrichment score” 0.455.
For `DDIVAKLVFDFVE [S5A]`, “normalised enrichment score” read 0.196.
Under “normalised enrichment score”, `ADIVSKLVFDFVE [D1A]` is recorded as 0.31.
Under “normalised enrichment score”, `DAIVSKLVFDFVE [D2A]` is recorded as 0.684.
`DDIVSKLVFDAVE [F11A]` — result for “normalised enrichment score”: 0.592.
`DDIASKLVFDFVE [V4A]` — result for “normalised enrichment score”: 0.374.

Study 3
Target: ABI1, truncated, D143A, DHFR fusion (Arabidopsis thaliana)
Technique: DHFR PCA, deep sequencing
Medium: yeast
Setting: methotrexate growth selection, single substitutions
Together with: (+)-ABA 17 µM
Baseline: wild-type fitted maximum
Reading: higher = stronger binding
Starting sequence: PYL1, truncated, DHFR fusion (Arabidopsis thaliana); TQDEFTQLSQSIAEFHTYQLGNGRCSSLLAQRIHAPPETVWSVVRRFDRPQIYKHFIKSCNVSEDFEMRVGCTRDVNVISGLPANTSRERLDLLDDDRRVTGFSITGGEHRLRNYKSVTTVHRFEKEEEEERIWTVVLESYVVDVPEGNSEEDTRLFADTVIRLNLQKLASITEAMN; partner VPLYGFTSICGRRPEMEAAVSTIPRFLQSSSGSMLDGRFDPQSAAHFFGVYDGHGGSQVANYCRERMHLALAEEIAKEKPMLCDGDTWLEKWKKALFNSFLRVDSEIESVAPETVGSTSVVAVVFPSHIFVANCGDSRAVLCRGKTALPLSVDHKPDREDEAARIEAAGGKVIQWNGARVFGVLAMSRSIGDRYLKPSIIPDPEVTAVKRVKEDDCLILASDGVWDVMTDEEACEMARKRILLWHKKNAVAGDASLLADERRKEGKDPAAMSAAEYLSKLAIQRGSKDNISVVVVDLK
Under “relative binding score”, `E152R` is recorded as 66.3%.
`K168Q` — result for “relative binding score”: 77.9%.
`F56V`: “relative binding score” 5.74%.
Under “relative binding score”, `T39R` is recorded as 81.1%.
For `I33W`, “relative binding score” read 1.86%.
For `T86V`, “relative binding score” read 63.3%.
`L169D`: “relative binding score” -14.3%.
`V40D` — result for “relative binding score”: 0.0549%.
`L166W` — result for “relative binding score”: -1.44%.

Other studies, line by line
The fold induction of `PhoQ, residues 284 288 289 292 302 303 GLASVI` is reported as 6.93 (PhoP, residues 12 14 15 18 19 LHHSG (Escherichia coli, UniProt P23836); Sort-seq, item: YFP reporter; E. coli; PhoQ-PhoP variant library, together with: 10 µM Mg2+; baseline: high Mg2+ state, higher = stronger signaling).

Some of these lines once more (study 1):
`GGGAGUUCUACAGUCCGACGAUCGCAGGAAGUAAAAACAAAUGGAAAUGCUUCGGAUAGUGGCAGGGGUGGAAAUUGCUAAGGAAAGGGUGGGAUGGGAGUGGGUAAAGAGUUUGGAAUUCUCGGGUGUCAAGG` gave a log2 enrichment of 1.09.
For `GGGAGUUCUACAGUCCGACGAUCAGUCCUGUGCUACACAUCGUAUGUACCGAAUCGGGGUUUUUUUGGGGUGGGGUGGGGAAAGUAUUAUGUUACGCCGUUCGGAUCUGCACUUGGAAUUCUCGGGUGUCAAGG`, the log2 enrichment was 0.528.
